Published values from different studies.
Numbered parts are unrelated; each lists some results of a single study.
Chain of UniProt P53778 (whole entry, looked up): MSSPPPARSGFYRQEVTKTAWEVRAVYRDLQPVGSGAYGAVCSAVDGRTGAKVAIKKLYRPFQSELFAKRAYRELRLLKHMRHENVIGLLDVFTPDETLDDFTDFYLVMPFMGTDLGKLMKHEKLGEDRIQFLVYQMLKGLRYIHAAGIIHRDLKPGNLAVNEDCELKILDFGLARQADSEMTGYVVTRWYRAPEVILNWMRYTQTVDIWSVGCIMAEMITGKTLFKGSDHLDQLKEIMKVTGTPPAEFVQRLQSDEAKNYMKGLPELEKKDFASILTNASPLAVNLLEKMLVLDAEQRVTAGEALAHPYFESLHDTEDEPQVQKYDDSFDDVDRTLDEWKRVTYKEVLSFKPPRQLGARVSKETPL
Chain of UniProt Q8IW41 (whole entry, looked up): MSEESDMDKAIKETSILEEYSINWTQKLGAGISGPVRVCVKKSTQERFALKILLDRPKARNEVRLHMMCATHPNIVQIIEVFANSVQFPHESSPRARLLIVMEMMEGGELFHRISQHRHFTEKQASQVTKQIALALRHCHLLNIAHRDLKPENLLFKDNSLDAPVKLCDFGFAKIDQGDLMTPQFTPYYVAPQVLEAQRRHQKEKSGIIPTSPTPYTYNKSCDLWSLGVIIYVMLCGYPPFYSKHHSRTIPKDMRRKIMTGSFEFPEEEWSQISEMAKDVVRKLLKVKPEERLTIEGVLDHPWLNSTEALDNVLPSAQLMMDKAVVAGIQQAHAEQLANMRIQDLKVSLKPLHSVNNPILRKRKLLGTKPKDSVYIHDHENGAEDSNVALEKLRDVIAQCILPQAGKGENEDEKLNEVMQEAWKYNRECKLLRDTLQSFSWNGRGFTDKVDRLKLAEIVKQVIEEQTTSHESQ
Chain of UniProt Q6ZN16 (whole entry, looked up): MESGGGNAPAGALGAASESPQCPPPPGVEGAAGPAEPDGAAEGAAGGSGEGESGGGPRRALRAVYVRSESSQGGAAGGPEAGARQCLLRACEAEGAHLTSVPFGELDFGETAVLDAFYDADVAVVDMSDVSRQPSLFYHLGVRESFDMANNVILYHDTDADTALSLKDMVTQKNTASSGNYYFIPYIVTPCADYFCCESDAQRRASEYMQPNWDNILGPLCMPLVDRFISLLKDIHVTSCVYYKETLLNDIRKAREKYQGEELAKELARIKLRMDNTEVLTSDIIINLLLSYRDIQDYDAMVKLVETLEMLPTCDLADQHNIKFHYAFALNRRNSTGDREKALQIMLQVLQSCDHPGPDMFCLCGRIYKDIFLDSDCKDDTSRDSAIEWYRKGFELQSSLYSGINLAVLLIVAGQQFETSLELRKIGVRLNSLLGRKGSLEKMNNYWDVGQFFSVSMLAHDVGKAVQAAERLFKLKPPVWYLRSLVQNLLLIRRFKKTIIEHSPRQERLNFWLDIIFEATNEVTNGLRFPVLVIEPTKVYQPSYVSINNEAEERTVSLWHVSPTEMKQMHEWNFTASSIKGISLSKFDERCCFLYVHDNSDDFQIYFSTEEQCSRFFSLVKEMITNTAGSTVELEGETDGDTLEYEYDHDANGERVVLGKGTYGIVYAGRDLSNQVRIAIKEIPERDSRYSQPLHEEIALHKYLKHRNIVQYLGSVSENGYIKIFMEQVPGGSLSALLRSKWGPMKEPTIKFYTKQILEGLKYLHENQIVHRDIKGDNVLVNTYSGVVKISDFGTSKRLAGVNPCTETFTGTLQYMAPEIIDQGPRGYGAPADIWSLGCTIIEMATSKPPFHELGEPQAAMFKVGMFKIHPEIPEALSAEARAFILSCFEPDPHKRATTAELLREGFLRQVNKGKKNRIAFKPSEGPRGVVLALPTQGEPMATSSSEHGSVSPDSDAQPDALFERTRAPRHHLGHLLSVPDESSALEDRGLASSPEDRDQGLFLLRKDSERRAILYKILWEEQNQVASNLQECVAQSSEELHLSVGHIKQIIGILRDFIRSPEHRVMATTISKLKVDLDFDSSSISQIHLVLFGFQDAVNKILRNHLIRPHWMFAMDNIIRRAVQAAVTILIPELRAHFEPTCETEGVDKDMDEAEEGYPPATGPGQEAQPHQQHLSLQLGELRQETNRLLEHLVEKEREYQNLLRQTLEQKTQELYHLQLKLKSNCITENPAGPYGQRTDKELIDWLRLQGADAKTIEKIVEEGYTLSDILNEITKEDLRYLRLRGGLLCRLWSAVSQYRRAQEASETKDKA
Chain of UniProt Q8TDC3 (whole entry, looked up): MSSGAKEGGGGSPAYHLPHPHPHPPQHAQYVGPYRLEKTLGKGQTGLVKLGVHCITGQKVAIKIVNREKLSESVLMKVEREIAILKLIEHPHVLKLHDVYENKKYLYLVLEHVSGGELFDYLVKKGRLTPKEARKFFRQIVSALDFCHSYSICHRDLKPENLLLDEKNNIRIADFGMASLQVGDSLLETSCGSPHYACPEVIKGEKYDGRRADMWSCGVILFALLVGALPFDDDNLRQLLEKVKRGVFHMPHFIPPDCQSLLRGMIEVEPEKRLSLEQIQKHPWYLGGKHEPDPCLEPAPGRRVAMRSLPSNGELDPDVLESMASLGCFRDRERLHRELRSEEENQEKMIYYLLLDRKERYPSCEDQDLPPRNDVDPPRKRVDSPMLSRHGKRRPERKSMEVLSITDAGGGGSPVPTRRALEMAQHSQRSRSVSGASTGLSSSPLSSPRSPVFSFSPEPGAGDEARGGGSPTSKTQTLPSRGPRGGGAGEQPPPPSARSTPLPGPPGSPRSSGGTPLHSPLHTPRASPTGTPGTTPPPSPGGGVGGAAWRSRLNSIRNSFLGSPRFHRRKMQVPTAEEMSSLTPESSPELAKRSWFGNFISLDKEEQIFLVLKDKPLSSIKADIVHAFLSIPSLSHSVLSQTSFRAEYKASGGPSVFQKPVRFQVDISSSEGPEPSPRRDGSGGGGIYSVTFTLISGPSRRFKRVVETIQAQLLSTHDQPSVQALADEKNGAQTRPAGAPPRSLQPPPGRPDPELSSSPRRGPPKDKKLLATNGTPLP
Chain of UniProt P51451 (whole entry, looked up): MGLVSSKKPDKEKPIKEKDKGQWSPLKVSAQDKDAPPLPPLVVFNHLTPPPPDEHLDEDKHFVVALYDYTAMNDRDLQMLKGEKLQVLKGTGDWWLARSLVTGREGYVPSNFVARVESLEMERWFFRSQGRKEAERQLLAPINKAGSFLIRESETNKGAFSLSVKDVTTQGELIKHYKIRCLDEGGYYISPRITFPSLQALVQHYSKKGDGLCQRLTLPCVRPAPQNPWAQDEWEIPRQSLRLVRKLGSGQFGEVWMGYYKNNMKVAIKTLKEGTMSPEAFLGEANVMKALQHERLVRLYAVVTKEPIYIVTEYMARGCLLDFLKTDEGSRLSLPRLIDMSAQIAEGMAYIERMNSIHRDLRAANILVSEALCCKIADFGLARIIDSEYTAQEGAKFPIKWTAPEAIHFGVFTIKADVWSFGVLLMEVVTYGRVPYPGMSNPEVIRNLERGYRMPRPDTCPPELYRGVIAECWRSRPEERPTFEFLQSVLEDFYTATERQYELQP

Series 1
Species: mouse
Sample: microsomes or S9
Concentration: 2 µM
Time: 0.5 h
Structure (SMILES) | remaining compound
CC(C)CS(=O)(=O)CC(=O)n1cccc/c1=N\C(C)C | 59.8%
O=c1c2cc3c(=O)n(-c4ccccc4)ccc3nc2ccn1CCO | 97.6%
CCC(C)OC(=O)c1c(NC(=O)C2CCN(S(C)(=O)=O)CC2)sc2c1CCCC2 (centres unmarked) | 17.8%
COc1cccc([C@@H]2CN(C(=O)C3CC(=O)Nc4ccccc43)C[C@]23CCCCC(=O)N3)c1 (some centres unmarked) | 23.9%
CC(NS(C)(=O)=O)c1nnc(N2CC3(CCC3)c3ccccc32)n1C (centres unmarked) | 55.3%
Cc1ccc(-c2cn3c4c(sc3n2)C(=O)C(C)(C)CC4)cc1 | 33.5%
COc1cc(Nc2ncc(-c3cnn(C)c3)c(Nc3ccc4c(c3)CNCC4)n2)cc(OC)c1 | 48.4%
COc1ccccc1CCN[C@H]1CS(=O)(=O)C[C@@H]1S(=O)(=O)c1ccc(Cl)cc1 | 1.04%

Series 2
Target: Cyclin-dependent kinase 9, with cyclin T1 (CDK9, Homo sapiens, UniProt P50750)
Chain of UniProt P50750 (whole entry, looked up): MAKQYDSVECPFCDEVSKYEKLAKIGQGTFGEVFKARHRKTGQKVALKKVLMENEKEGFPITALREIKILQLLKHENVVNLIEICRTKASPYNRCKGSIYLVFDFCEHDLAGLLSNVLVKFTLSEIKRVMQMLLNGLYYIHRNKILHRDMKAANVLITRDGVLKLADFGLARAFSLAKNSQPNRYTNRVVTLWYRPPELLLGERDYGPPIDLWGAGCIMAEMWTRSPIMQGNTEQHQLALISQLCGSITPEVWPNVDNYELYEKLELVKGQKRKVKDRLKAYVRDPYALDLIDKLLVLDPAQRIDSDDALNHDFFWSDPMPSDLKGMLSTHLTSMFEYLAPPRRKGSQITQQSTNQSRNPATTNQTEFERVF
Read-out: enzyme activity
Action: inhibitor
Concentration: 0.5 µM
Relative to: control
Structure (SMILES) | remaining activity [%]
Cc1cn(-c2cc(NC(=O)c3ccc(C)c(Nc4nccc(-c5cccnc5)n4)c3)cc(C(F)(F)F)c2)cn1 | 94.7
CCOc1nc(NC(=O)Cc2cc(OC)ccc2OC)cc(N)c1C#N | 100
Cc1nc2cc3nc(-c4cccs4)cnc3cc2n1C | 88.3
O=c1cc(-c2cccc3c2Sc2ccccc2S3)oc(N2CCOCC2)c1 | 100
COc1cc2c(cc1OC)-c1[nH]nc(Nc3cccc(F)c3)c1C2 | 97.6
Cn1nc2c3c(cccc31)C(=O)c1ccccc1-2 | 94.7
CCN(CC)CCNC(=O)c1c(C)[nH]c(/C=C2\C(=O)Nc3ccc(Cl)cc32)c1C | 58.8
N#Cc1c(NC(=O)c2cccc3ccccc23)sc2c1CCCC2 | 100
CN([C@@H](Cc1ccc(OS(=O)(=O)c2cccc3cnccc23)cc1)C(=O)N1CCN(c2ccccc2)CC1)S(=O)(=O)c1cccc2cnccc12 | 100
O=C1C(Cl)=C(N2C(=O)CCC2=O)C(=O)c2ccccc21 | 101
O=C1c2ccccc2-c2n[nH]c3cccc1c23 | 99.3
O=C(Nc1cccc(Nc2nccc(Nc3cccc(C(F)(F)F)c3)n2)c1)C1CC1 | 86.8
C[C@@H]1CCN(C(=O)CC#N)C[C@@H]1N(C)c1ncnc2[nH]ccc12 | 100
CN(C)C[C@H]1CCn2c(c(C3=C(c4cn(C)c5ccccc45)C(=O)NC3=O)c3ccccc32)C1 | 39.6
c1ccc(-c2[nH]ncc2-c2ccnc3ccccc23)nc1 | 80
O=C(NC(NC(=S)Nc1ccc(F)c([N+](=O)[O-])c1)C(Cl)(Cl)Cl)C(c1ccccc1)c1ccccc1 (centres unmarked) | 95
Nc1cccc(-c2cc3c(Oc4cccc(O)c4)ncnc3[nH]2)c1 | 63.2
c1ccc(-c2cnc(Nc3ccc(OCCN4CCCC4)cc3)s2)cc1 | 66.1
Ic1cccc(CSc2nnc(-c3ccncc3)o2)c1 | 109
COc1cc2ncnc(Nc3cccc(Cl)c3)c2cc1OC | 85.1
COc1cc2ncnc(Nc3ccc(O)c(Br)c3)c2cc1OC | 91.4
Cc1cc2ncc(-c3ccccc3)nc2cc1C | 93.9
N#C/C(=C\c1ccc(O)c(O)c1)C(=O)NCc1ccccc1 | 74.9
CCN(CC)CCNC(=O)c1c(C)[nH]c(/C=C2\C(=O)Nc3ccc(F)cc32)c1C | 88.7
CCN(CC)C(=O)c1ccc(Nc2nc(OCC3CCCCC3)c3[nH]cnc3n2)cc1 | 88.8

Series 3
Cell line: mouse MPNST tumor cells
Technique: high-content immunofluorescence imaging
Item: nuclear SOX9
Concentration: 10 µM
Time: 12 h
Setting: mean of 2 replicates
Relative to: DMSO control
Direction: higher = more nuclear SOX9
Compound | nuclear SOX9 intensity
CCOc1ccc(NC(C)=O)cc1 | 102 % of DMSO
OCCC#Cc1nc(-c2ccc(F)cc2)c(-c2ccncc2)n1CCCc1ccccc1 | 98 % of DMSO
COCC(=O)Nc1c(I)c(C(=O)NCC(O)CO)c(I)c(C(=O)N(C)CC(O)CO)c1I (centres unmarked) | 99.4 % of DMSO
CCC(=O)c1cc(-c2ccc(Cl)cc2)n(-c2ccc(S(N)(=O)=O)cc2)c1C | 103 % of DMSO
CC1(C)CCC(C)(C)c2cc(C3(c4ccc(C(=O)O)cc4)OCCO3)ccc21 | 99.4 % of DMSO
CC=CC(=O)N(CC)c1ccccc1C | 90.3 % of DMSO
CC(C)n1c(=O)n(C(=O)NC2CC3CCC(C2)N3C)c2ccccc21 (centres unmarked) | 123 % of DMSO
CC(=O)Nc1nc(C)c(S(=O)(=O)Nc2ccc(C(O)(C(F)(F)F)C(F)(F)F)cc2)s1 | 91.3 % of DMSO

Series 4
Structure (SMILES): CS(=O)(=O)N1CCCC(NC(=O)[C@H](CCC2CCCCC2)NC(=O)c2ccc(CNc3ncnc4c3nnn4-c3ccccc3)cc2)C1 (some centres unmarked)
Read-out: cell-free assay
Technique: competition with immobilised ligand
Concentration: 0.1 µM
target | remaining binding
MAP3K15 (Homo sapiens, UniProt Q6ZN16) | 74%
EGFR (Homo sapiens, UniProt P00533) | 100%
SIK2 (Homo sapiens, UniProt Q9H0K1) | 86%
CDK14 (Homo sapiens, UniProt O94921) | 100%
Insulin receptor (INSR, Homo sapiens, UniProt P06213) | 100%
MAPK12 (Homo sapiens, UniProt P53778) | 100%
FGFR2 (Homo sapiens, UniProt P21802) | 97%
Aurora kinase B (AURKB, Homo sapiens, UniProt Q96GD4) | 100%
MAK (Homo sapiens, UniProt P20794) | 100%
KIT (Homo sapiens, UniProt P10721, D816H) | 68%
Tyrosine-protein kinase ABL1, phosphorylated (ABL1, Homo sapiens, UniProt P00519, T315I) | 100%
MAPKAPK5 (Homo sapiens, UniProt Q8IW41) | 100%
BLK (Homo sapiens, UniProt P51451) | 100%
MET (Homo sapiens, UniProt P08581, Y1235D) | 98%
BRSK1 (Homo sapiens, UniProt Q8TDC3) | 100%

Excerpt of the above (series 3):
Compound | nuclear SOX9 intensity
OCCC#Cc1nc(-c2ccc(F)cc2)c(-c2ccncc2)n1CCCc1ccccc1 | 98 % of DMSO
COCC(=O)Nc1c(I)c(C(=O)NCC(O)CO)c(I)c(C(=O)N(C)CC(O)CO)c1I (centres unmarked) | 99.4 % of DMSO
CCC(=O)c1cc(-c2ccc(Cl)cc2)n(-c2ccc(S(N)(=O)=O)cc2)c1C | 103 % of DMSO
CC1(C)CCC(C)(C)c2cc(C3(c4ccc(C(=O)O)cc4)OCCO3)ccc21 | 99.4 % of DMSO
CC=CC(=O)N(CC)c1ccccc1C | 90.3 % of DMSO
CC(C)n1c(=O)n(C(=O)NC2CC3CCC(C2)N3C)c2ccccc21 (centres unmarked) | 123 % of DMSO
CC(=O)Nc1nc(C)c(S(=O)(=O)Nc2ccc(C(O)(C(F)(F)F)C(F)(F)F)cc2)s1 | 91.3 % of DMSO
